# Assay results pooled from the literature.
# Numbered parts are unrelated; each lists some results of a single study. Positions count from the first letter of the parent shown.
# Chain of UniProt Q6ZN16 (whole entry, looked up): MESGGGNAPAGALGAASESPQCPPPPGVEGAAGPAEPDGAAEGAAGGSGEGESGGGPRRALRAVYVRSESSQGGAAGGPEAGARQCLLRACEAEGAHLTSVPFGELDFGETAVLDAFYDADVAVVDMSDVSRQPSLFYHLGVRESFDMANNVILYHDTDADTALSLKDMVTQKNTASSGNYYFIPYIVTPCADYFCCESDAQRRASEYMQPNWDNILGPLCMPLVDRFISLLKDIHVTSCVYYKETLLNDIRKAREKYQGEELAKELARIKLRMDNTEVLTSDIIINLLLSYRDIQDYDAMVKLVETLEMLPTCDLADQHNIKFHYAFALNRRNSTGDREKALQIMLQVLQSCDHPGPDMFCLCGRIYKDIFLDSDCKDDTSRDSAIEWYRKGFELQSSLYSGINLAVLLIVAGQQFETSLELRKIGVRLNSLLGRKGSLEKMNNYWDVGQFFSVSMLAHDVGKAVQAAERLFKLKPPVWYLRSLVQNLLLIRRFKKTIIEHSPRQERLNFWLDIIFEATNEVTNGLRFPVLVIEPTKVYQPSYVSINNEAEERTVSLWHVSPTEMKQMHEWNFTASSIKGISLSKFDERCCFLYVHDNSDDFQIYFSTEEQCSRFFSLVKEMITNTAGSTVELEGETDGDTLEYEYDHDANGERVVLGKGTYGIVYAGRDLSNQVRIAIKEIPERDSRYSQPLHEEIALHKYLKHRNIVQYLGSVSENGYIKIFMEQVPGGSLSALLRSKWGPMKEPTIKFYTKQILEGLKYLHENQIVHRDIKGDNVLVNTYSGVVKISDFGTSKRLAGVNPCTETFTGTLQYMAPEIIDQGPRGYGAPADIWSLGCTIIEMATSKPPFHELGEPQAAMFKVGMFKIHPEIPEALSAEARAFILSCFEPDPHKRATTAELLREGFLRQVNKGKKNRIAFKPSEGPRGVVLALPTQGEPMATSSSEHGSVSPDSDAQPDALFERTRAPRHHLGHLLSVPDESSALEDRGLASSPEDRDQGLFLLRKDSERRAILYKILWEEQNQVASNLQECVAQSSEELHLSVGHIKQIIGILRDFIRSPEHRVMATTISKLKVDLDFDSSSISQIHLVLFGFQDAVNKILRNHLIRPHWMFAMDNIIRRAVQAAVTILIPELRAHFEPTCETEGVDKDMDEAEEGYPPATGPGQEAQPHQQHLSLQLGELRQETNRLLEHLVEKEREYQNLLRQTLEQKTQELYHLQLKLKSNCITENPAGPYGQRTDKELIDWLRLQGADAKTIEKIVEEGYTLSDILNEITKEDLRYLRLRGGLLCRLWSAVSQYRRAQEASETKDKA
# Chain of UniProt Q96L34 (whole entry, looked up): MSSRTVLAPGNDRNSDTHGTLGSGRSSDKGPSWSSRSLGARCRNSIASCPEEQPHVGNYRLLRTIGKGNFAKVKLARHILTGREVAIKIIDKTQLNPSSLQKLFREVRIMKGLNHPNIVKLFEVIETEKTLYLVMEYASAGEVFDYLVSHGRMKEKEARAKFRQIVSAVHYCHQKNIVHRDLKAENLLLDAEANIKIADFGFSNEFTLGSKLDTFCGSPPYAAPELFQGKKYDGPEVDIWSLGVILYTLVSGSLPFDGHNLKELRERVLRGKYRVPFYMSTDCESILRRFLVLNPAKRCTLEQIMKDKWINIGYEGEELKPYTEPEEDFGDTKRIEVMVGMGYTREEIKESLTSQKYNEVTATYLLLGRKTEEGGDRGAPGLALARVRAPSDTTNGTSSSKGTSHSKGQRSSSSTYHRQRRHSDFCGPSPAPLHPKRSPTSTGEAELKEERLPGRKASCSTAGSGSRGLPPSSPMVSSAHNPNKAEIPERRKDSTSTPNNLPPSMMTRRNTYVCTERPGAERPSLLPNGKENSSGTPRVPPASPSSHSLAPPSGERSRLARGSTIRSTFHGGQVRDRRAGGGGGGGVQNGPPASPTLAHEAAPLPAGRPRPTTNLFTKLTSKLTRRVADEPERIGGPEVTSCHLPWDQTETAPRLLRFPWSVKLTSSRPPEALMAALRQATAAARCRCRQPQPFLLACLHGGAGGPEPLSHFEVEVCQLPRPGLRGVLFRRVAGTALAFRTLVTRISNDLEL
# Chain of UniProt P23443 (whole entry, looked up): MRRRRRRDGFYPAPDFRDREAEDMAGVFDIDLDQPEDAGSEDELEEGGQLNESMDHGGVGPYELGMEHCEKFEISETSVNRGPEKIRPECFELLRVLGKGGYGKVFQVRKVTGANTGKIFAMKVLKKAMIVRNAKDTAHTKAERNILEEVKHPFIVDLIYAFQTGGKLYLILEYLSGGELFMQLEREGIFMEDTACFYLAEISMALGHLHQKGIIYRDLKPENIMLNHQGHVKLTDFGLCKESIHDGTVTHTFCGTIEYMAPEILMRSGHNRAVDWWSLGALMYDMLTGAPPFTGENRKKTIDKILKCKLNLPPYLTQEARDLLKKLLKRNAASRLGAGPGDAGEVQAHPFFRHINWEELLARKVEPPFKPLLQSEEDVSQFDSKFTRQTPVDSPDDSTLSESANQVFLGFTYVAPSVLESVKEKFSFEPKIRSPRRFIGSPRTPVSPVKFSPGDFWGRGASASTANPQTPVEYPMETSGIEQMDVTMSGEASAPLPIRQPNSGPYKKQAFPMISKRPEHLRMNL
# Chain of UniProt P50750 (whole entry, looked up): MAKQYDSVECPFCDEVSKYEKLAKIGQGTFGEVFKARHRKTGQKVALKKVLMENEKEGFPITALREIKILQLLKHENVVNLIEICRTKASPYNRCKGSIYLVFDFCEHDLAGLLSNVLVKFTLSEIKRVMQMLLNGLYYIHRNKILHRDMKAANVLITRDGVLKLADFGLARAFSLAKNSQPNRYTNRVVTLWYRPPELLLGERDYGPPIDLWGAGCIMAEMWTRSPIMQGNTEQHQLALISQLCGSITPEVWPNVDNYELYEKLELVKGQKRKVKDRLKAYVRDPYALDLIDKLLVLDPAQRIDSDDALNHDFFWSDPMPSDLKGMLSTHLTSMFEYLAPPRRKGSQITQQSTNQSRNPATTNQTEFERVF
# Chain of UniProt P10721 (whole entry, looked up): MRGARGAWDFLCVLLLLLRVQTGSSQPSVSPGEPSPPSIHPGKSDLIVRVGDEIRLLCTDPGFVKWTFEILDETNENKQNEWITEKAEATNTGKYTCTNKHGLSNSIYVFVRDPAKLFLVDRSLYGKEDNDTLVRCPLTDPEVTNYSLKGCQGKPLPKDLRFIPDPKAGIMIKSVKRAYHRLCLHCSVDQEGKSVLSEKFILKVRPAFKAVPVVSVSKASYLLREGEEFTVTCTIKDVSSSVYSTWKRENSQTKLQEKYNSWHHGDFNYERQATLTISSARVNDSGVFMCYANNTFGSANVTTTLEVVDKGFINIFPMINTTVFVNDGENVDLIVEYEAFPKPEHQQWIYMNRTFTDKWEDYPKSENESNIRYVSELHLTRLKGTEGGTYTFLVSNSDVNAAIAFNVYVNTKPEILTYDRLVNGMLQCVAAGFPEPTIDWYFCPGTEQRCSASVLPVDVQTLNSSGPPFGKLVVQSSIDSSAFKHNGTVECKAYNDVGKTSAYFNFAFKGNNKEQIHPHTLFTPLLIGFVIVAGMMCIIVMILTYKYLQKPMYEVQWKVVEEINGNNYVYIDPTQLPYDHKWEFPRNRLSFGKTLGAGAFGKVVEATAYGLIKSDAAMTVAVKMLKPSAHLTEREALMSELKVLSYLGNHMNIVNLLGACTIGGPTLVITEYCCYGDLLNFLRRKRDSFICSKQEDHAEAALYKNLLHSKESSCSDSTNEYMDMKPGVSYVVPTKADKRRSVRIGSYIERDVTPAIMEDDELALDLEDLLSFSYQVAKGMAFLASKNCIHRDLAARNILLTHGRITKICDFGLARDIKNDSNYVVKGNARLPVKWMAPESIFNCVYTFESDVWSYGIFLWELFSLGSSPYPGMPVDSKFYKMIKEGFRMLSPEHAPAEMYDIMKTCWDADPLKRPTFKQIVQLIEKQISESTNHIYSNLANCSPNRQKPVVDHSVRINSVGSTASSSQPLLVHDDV
# Chain of UniProt O75914 (whole entry, looked up): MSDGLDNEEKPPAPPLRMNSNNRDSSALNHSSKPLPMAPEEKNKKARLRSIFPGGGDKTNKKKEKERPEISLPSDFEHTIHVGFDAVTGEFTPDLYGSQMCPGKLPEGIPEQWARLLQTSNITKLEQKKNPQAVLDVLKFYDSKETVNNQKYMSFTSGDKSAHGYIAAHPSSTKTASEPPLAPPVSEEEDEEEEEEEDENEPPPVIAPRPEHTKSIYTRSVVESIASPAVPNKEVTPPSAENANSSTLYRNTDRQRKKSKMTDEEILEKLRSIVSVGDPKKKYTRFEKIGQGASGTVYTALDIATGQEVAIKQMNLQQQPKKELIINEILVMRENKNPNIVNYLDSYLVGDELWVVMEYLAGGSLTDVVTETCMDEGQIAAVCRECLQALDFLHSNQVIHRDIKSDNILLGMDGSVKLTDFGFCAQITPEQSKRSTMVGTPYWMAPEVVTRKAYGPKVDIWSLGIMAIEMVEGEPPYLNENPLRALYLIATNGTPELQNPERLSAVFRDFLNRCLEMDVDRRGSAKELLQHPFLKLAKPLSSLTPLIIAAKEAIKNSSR
# Chain of UniProt Q9BYT3 (whole entry, looked up): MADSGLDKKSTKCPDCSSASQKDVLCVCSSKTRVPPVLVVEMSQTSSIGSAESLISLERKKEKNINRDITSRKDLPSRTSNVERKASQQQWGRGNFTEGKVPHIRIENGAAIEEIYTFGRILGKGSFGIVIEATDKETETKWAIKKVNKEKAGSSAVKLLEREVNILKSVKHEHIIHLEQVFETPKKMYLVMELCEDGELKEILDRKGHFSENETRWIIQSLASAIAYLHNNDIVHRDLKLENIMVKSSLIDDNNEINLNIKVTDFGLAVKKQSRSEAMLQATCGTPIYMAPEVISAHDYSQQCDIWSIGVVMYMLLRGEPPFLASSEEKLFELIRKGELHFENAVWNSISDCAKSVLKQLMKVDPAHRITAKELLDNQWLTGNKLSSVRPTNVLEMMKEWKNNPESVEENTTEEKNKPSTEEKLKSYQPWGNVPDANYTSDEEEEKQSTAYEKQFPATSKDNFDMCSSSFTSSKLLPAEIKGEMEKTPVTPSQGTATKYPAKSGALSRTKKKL

# Series 1
# Target: CCNB3, cyclin fold, Cln2 fusion (human)
# Technique: yeast growth competition, sequencing
# Sample: yeast
# Notes: weak parent motif
# Reference: not given
# Direction: higher = stronger binding
# Parent: SLBP docking peptide (human); ARYKRKLLINDFG
Change,normalised enrichment score
ARYKRKLLINDFF [G13F],0.299
ARYKRKLLINSFG [D11S],-0.0356
ARYKRKLLANDFG [I9A],-0.311
ARYKEKLLINDFG [R5E],0.144
ARYKRQLLINDFG [K6Q],0.556
ARYKRKLLINDTG [F12T],-0.503
ARYKRKLLINTFG [D11T],0.39
ARYKRKLLHNDFG [I9H],0.103

# Series 2
# SMILES: CN(C)C[C@H]1CCn2c(c(C3=C(c4cn(C)c5ccccc45)C(=O)NC3=O)c3ccccc32)C1
# Read-out: enzyme activity
# Mode: inhibitor
# Tested at: 0.5 µM
# Reference: control
target,remaining activity [%]
"Calcium/calmodulin-dependent protein kinase type IV (CAMK4, Homo sapiens, UniProt Q16566)",95.5
"Cyclin-dependent kinase 9, with cyclin K (CDK9, Homo sapiens, UniProt P50750)",43.5
"Calcium/calmodulin-dependent protein kinase type 1B (PNCK, Homo sapiens, UniProt Q6P2M8)",95.2
"MAP/microtubule affinity-regulating kinase 4 (MARK4, Homo sapiens, UniProt Q96L34)",93.9
"Ribosomal protein S6 kinase alpha-4 (RPS6KA4, Homo sapiens, UniProt O75676)",33.3
"Serine/threonine-protein kinase PLK3 (PLK3, Homo sapiens, UniProt Q9H4B4)",100
"Serine/threonine-protein kinase PAK 3 (PAK3, Homo sapiens, UniProt O75914)",102
"RAC-beta serine/threonine-protein kinase (AKT2, Homo sapiens, UniProt P31751)",92.6
"Mitogen-activated protein kinase 14 (MAPK14, Homo sapiens, UniProt Q16539)",108

# Series 3
# Compound: O=C(N1CCS(=O)(=O)CC1)N1C[C@H](c2ccc(OC(F)(F)F)cc2)C[C@H](c2nc(C3CC3)no2)C1
# Read-out: cell-free assay
# Technique: competition with immobilised ligand
# Tested at: 1 µM
target,remaining binding [%]
"Phosphatidylinositol 4-phosphate 5-kinase type-1 gamma (PIP5K1C, Homo sapiens, UniProt O60331)",100
"Tyrosine-protein kinase ABL1, phosphorylated (ABL1, Homo sapiens, UniProt P00519, M351T)",100
"Mast/stem cell growth factor receptor Kit (KIT, Homo sapiens, UniProt P10721)",100
"Ribosomal protein S6 kinase beta-1 (RPS6KB1, Homo sapiens, UniProt P23443)",100
"Serine/threonine-protein kinase WNK3 (WNK3, Homo sapiens, UniProt Q9BYP7)",99
"Protein kinase C epsilon type (PRKCE, Homo sapiens, UniProt Q02156)",97
"Ribosomal protein S6 kinase alpha-3, C-terminal kinase domain (RPS6KA3, Homo sapiens, UniProt P51812)",100
"Cyclin-dependent kinase 11B (CDK11B, Homo sapiens, UniProt P21127)",100
"Serine/threonine-protein kinase 33 (STK33, Homo sapiens, UniProt Q9BYT3)",99
"cGMP-dependent protein kinase 2 (PRKG2, Homo sapiens, UniProt Q13237)",100
"Mitogen-activated protein kinase kinase kinase 5 (MAP3K5, Homo sapiens, UniProt Q99683)",100
"Mitogen-activated protein kinase kinase kinase 15 (MAP3K15, Homo sapiens, UniProt Q6ZN16)",100

# Series 4
# Target: Prothrombin, mature alpha-thrombin (F2, Homo sapiens, UniProt P00734)
# Technique: aptamer microarray, sandwich
# Form: DNA with 2'F-ANA
# Sample: in vitro
# Tested at: 200 nM
# Notes: whole 15-mer aptamer, many near background
# With: Cy3 exosite-II aptamer, 400 nM
# Direction: higher = stronger binding
# Strand: GGTTGGTGTGGTTGG
Modification,mean fluorescence intensity
2'F-ANA at 2 3 4 5 6 7 9 13 14,44.8 a.u.
2'F-ANA at 1 2 3 5 6 7 10 11 14 15,238 a.u.
2'F-ANA at 4 5 8 10 11 13 15,45.9 a.u.
2'F-ANA at 2 6 7 8 9 12 13 15,508 a.u.
2'F-ANA at 1 2 3 6 8 10 11 13 15,59.8 a.u.
2'F-ANA at 2 3 10 12 13,406 a.u.
2'F-ANA at 1 6 7 8 10 11 12 13 14 15,54.3 a.u.
2'F-ANA at 3 5 6 7 8 10 15,58.2 a.u.
